Earlier results, collected from citations in different studies.
Lines come from different studies, so protocols differ. Several values in a cell are separate wells, animals, samples, runs or records. ± marks the error that the study gave.
Chain of UniProt P46098 (whole entry, looked up): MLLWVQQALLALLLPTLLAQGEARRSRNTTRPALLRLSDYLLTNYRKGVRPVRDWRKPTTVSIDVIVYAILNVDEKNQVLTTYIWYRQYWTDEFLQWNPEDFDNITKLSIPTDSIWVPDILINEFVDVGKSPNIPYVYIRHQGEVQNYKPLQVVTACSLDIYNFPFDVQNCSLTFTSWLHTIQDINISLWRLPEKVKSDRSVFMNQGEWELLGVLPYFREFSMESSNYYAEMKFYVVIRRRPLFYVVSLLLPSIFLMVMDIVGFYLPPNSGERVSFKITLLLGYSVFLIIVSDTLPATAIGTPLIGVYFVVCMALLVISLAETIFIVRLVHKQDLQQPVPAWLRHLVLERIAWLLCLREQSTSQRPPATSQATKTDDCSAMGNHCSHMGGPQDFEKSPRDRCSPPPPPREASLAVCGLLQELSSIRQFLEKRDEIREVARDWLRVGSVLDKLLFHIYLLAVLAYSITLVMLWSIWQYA
Chain of UniProt O95264 (whole entry, looked up): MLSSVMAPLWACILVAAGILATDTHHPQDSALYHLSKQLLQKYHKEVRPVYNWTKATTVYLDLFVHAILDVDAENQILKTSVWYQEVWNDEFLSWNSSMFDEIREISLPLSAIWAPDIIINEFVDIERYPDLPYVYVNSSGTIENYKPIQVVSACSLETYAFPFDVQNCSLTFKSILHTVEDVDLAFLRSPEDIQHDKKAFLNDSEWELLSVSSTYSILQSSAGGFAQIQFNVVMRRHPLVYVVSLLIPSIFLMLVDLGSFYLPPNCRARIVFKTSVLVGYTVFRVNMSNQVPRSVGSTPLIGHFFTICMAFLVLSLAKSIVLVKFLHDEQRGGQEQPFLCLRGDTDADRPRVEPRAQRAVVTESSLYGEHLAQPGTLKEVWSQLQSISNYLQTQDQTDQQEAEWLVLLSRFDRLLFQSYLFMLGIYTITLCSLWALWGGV
Chain of UniProt P32300 (whole entry, looked up): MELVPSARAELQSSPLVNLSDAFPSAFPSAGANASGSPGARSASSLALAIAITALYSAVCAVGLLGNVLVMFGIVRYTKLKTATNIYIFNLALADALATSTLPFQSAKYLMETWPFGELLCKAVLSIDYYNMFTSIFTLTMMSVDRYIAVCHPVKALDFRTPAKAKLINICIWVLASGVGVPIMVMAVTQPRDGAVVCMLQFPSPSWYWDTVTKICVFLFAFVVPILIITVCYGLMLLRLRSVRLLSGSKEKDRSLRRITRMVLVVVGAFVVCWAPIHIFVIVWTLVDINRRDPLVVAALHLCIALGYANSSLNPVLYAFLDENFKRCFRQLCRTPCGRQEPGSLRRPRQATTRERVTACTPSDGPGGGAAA
Chain of UniProt O14976 (whole entry, looked up): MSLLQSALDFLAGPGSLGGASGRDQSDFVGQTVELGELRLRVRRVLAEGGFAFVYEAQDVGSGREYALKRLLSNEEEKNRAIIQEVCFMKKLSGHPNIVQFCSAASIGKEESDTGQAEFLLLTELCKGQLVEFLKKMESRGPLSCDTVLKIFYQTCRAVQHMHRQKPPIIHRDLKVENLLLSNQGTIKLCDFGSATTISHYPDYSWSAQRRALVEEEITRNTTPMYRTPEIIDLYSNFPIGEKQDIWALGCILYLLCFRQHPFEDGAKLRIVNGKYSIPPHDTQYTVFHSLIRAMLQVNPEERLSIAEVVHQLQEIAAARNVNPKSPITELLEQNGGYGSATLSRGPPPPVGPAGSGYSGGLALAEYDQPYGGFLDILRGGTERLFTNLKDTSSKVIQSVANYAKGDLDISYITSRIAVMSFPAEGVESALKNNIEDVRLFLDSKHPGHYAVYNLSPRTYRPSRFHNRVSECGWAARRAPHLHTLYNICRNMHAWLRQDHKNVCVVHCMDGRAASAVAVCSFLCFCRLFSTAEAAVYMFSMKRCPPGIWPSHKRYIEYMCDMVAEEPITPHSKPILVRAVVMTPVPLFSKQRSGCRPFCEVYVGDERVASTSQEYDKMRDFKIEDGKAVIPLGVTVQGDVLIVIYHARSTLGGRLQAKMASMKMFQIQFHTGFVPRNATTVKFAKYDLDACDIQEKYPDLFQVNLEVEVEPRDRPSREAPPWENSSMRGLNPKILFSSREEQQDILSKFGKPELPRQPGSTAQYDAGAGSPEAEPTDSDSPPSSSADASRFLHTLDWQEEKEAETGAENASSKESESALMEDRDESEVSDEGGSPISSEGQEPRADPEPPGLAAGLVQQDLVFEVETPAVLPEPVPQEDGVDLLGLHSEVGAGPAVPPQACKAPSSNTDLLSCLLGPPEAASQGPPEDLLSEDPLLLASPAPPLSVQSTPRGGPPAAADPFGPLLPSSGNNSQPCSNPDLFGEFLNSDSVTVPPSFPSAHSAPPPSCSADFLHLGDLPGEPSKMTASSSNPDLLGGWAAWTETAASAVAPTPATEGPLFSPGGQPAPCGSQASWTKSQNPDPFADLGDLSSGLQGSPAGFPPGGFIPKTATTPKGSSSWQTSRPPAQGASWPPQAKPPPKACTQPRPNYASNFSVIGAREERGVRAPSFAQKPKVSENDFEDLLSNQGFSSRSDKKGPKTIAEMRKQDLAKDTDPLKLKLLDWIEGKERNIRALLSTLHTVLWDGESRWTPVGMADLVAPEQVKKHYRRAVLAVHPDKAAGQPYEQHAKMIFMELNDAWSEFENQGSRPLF
Chain of UniProt O55242 (whole entry, looked up): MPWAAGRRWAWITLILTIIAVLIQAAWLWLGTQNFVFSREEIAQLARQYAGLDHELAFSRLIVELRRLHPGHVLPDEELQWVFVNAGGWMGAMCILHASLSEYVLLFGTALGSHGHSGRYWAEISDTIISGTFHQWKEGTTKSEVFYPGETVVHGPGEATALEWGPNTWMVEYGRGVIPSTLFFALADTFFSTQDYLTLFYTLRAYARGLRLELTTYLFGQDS
Chain of UniProt P09470 (whole entry, looked up): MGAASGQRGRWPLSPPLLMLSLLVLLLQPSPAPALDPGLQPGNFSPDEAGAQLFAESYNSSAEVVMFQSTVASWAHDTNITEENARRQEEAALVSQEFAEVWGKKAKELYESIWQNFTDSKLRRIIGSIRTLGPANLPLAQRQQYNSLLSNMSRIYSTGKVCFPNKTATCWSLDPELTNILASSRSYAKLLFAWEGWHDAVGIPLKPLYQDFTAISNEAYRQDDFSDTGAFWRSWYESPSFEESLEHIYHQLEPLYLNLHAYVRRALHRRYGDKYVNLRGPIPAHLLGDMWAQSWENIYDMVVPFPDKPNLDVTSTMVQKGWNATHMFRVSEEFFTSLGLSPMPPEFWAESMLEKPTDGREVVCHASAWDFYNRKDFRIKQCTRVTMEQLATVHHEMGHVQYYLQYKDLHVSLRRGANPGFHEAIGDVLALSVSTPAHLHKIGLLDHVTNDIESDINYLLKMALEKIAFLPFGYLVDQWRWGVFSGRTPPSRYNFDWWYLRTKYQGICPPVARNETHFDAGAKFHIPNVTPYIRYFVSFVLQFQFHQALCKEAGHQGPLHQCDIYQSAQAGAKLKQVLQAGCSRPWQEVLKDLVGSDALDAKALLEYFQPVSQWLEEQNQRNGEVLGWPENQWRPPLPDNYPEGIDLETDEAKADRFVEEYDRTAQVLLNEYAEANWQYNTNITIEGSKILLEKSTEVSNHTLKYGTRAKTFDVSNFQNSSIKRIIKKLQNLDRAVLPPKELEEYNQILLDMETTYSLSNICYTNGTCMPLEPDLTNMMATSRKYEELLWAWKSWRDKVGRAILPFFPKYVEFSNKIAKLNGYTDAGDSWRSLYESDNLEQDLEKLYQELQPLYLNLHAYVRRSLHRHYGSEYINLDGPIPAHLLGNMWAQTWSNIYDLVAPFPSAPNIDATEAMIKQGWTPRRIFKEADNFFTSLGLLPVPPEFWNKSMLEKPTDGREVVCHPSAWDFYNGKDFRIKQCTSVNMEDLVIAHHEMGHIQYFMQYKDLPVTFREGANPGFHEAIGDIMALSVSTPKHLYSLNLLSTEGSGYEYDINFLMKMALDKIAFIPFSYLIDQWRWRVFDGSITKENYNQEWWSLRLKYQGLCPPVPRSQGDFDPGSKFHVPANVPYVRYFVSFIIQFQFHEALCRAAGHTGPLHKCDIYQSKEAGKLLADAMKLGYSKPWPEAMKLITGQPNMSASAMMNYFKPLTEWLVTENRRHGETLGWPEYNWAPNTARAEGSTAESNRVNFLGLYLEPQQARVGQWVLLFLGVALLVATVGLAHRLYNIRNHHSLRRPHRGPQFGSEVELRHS
Chain of UniProt P25084 (whole entry, looked up): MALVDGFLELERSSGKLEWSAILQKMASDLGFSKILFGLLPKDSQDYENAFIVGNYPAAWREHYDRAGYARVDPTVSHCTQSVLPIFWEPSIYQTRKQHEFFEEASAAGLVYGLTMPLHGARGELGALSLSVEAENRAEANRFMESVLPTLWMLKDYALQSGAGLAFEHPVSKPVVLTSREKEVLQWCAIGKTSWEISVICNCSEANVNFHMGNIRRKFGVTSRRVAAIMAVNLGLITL

CC(=O)N[C@@H](Cc1ccccc1)C(=O)N[C@@H](CC(=O)O)C(=O)N[C@@H](CC(N)=O)C(=O)N1CCC[C@H]1C(=O)N[C@H](C(=O)N[C@@H](CO)C(=O)O)C(C)C  internalization index (LDL receptor, position 807 mutant; relative to: native LDL receptor): 0.2
NC1CC1c1ccc(NC(=O)c2cccc(NC(=O)OCc3ccccc3)c2)cc1 (centres unmarked)  inhibition (Amine oxidase [flavin-containing] A (MAOA, Homo sapiens, UniProt P21397); concentration not given): 46%
CC(C)[C@@H](CN1CC[C@@](C)(c2cccc(C(N)=O)c2)[C@@H](C)C1)NC(=O)[C@H]1Cc2ccc(O)cc2CN1  selectivity ratio (Kappa-type opioid receptor (OPRK1, Homo sapiens, UniProt P41145); antagonist; relative to: Ke mu over Ke kappa): 175
COc1ccc(CCN2CCN(C/C=C/[125I])CC2)cc1OC  specific binding (Sigma non-opioid intracellular receptor 1 (Sigmar1, Mus musculus, UniProt O55242); ex vivo autoradiography; mouse; dose not given, 60 min; relative to: total binding): 80%
O=C1C=C(Br)/C(=C/Br)O1  inhibition (Transcriptional activator protein LasR (lasR, Pseudomonas aeruginosa, UniProt P25084); antagonist; up to 10 µM): < 20%
COc1cc(O)c2c(c1)/C=C/C[C@H](O)[C@H](O)C(=O)/C=C\C[C@H](C)OC2=O  remaining binding (Cyclin-G-associated kinase (GAK, Homo sapiens, UniProt O14976); 10 µM; relative to: control): 10%
CSCC[C@H](NC(=O)[C@H](Cc1ccccc1)NC(=O)CNC(=O)[C@@H](C)NC(=O)[C@@H](N)Cc1ccc(O)cc1)C(=O)N1CCC[C@H]1C(=O)N[C@@H](CC(C)C)C(=O)N[C@@H](Cc1c[nH]c2ccccc12)C(=O)NCc1cc(C(F)(F)F)cc(C(F)(F)F)c1  Ke (Substance-P receptor (Cavia porcellus, UniProt P30547); antagonist; guinea pig ileum; added: naloxone 1 µM): 10 ± 2 nM
CCCCCC1=C(NCC)C(=O)C(C/C=C(\C)CCC=C(C)C)=C(O)C1=O  activity (cannabinoid receptor CB2; concentration not given): inactive
CC(C)(C)c1ccc(C(=O)Nc2cc(Cl)c(Br)cc2C(=O)O)cc1  inhibition (mammalian kinase panel; 5 µM; highest of any kinase): ≤ 10%
CC(C)C[C@@H]1NC(=O)[C@H](Cc2ccc(O)cc2)NC(=O)[C@H](CC(N)=O)NC(=O)[C@H](CO)NC(=O)[C@@H](NC(=O)[C@@H]2CCCN2C(=O)[C@H](CC(N)=O)NC(=O)[C@H](Cc2ccc(O)cc2)NC(=O)[C@H](CCCCN)NC(=O)[C@H](CO)NC(=O)[C@H](C)NC(=O)[C@@H](N)CC(N)=O)CSC1=O  agr system activity (Accessory gene regulator protein C (Staphylococcus epidermidis, UniProt Q5HMY3); group-I agr signalling, inhibitor; concentration not given): inhibited
N[C@@H](CN[C@@H](CN[C@@H](CC(=O)O)C(=O)O)C(=O)O)C(=O)O  Hill coefficient (Metallo-beta-lactamase type 2 (blaNDM-1, Klebsiella pneumoniae, UniProt C7C422); enzyme activity, inhibitor; added: Zn2+ 10 µM): ~4
CSCC[C@H](NC(=O)[C@H](Cc1ccccc1)NC(=O)CNC(=O)[C@@H](C)NC(=O)[C@@H](N)Cc1ccc(O)cc1)C(=O)N1CCC[C@H]1C(=O)N[C@@H](CC(C)C)C(=O)N[C@@H](Cc1c[nH]c2ccccc12)C(=O)NCc1cc(C(F)(F)F)cc(C(F)(F)F)c1  Emax (Delta-type opioid receptor (Oprd1, Mus musculus, UniProt P32300); agonist): 100%
CC(=O)N[C@H]1[C@@H](OC[C@H](NC(=O)CNC(=O)[C@@H]2CCCN2C(=O)[C@H](C)NC(=O)[C@@H]2CCCN2C(=O)[C@@H](N)CCCNC(=N)N)C(=O)N[C@H](C(=O)N[C@@H](C)C(=O)N2CCC[C@H]2C(=O)N2CCC[C@H]2C(=O)N[C@@H](C)C(=O)N[C@@H](Cc2c[nH]cn2)C(=O)NCC(=O)O)[C@@H](C)O)O[C@H](CO)[C@H](O)[C@@H]1O  koff (16 A monoclonal antibody; SPR): 0.0312 s⁻¹
O=C([O-])CN1CCN(CC(=O)NCCN(Cc2ccccn2)Cc2ccccn2)CCN(CC(=O)[O-])CCN(CC(=O)NCCN(Cc2ccccn2)Cc2ccccn2)CC1.[Gd+3]  relaxivity r1 (Albumin, Zn(II)-bound (ALB, Homo sapiens, UniProt P02768); 0.47 T bound to HSA, added: Zn(II)): 17.5 mM⁻¹ s⁻¹
O=C(OCC[18F])C1C2CCC(CC1c1ccc(/C=C\I)cc1)N2 (centres unmarked)  time to peak uptake (SERT; microPET; anaesthetised, putamen): 95 min
CN1CCN(c2nc3ccccc3nc2Cl)CC1  recovery time from inhibition (Serotonin 3 (5-HT3) receptor (Homo sapiens, UniProt O95264+P46098); ion current; concentration not given, 5-HT3AB receptor, added: serotonin): ~8 min and < 8 min
CCCCCCCCCc1c(C(=O)NCCc2ccc(N3CCCCC3)cc2)[nH]c2ccc(Cl)cc12  cooperativity factor alpha (Cannabinoid receptor 1 (CNR1, Homo sapiens, UniProt P21554); allosteric modulator, radioligand binding; added: [3H]CP55,940): 6.8
CC(C)C[C@H](NC(=O)c1ccccc1N)C(=O)N[C@@H](Cc1ccccc1)C(=O)N[C@@H](CCCCNc1ccc([N+](=O)[O-])cc1[N+](=O)[O-])C(=O)O  Km (Angiotensin-converting enzyme, C-domain (Mus musculus, UniProt P09470); substrate; C-domain selective substrate): 4 to 12 µM
CC(CCC(=O)NC(CCCCNC(=O)C(F)(F)F)C(=O)O)C1CCC2C3C(O)CC4CC(O)CCC4(C)C3CC(O)C12C (centres unmarked)  Km (Hepatic sodium/bile acid cotransporter (SLC10A1, Homo sapiens, UniProt Q14973); substrate): 8.99 ± 2.79 µM
OCCN1C[C@H](O)[C@@H](O)[C@H](O)[C@H]1CF  inhibition (α-glucosidase, yeast; concentration not given): inactive
